Results of several laboratories.
Every numbered part comes from another study and shows a few of its results, in no order. Changes are numbered by the printed parent chain.

Study 1
Target: CCND3, cyclin fold, Cln2 fusion (human)
Method: yeast growth competition, sequencing
Matrix: yeast
Notes: weak parent motif
Reference: not given
Direction: higher = stronger binding
Endpoint: normalised enrichment score
Starting sequence: viral docking peptide; YKVKRRLVFGADD; partner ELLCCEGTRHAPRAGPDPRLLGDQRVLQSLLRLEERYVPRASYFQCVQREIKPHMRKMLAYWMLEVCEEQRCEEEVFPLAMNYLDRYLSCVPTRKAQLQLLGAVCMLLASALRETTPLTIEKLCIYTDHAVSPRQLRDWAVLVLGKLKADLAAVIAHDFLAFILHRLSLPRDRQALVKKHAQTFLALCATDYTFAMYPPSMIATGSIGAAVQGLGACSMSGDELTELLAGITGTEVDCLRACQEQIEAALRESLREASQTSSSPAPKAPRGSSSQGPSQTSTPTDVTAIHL
F9P: 0.132
A11T: 0.421
D12Y: 0.303
K2W: 0.366
G10C: 0.188
D12A: 0.0404
K2F: 0.3
V3I: 0.538

Study 2
Target: UBE2D3 UBC core domain (UniProt P61077)
Method: yeast two-hybrid
Matrix: yeast
Notes: mostly zero background
Reference: not given
Direction: higher = stronger interaction
Endpoint: lacZ reporter activity
B1: TRIM41 RING domain (UniProt Q8WV44); chain PVQTLQEEAVCAICLDYFTDPVSIGCGHNFCRVCVTQLWGGEDEEDRDELDREEEEEDGEEE
B2: RUFY1 RING domain (UniProt Q96T51); chain QALKGHAWLKDDEATHCRQCEKEFSISRRKHHCRNCGHIFCNTCSSNELALPSYPKPVRVCDSCHTLLLQRCSSTAS
B3: ARIH2 RING domain (UniProt O95376); chain HVPTSHPPHHCAVCMQFVRKENLLSLACQHQFCRSCWEQHCSVLVKDGVGVGVSCMAQDCPLRTPEDFVF
B4: RNF103 RING domain (UniProt O00237); chain WPADMLHCTECVVCLENFENGCLLMGLPCGHVFHQNCIVMWLAGGRHCCPVCRWPSYKKKQPY
B5: RNF182 RING domain (UniProt Q8N6D2); chain AESQASDELECKICYNRYNLKQRKPKVLECCHRVCAKCLYKIIDFGDSPQGVIVCPFCRFETCLPDDEV
B6: CNOT4 RING domain (UniProt O95628); chain MSRSPDAKEDPVECPLCMEPLEIDDINFFPCTCGYQICRFCWHRIRTDENGLCPACRKPYPED
Construct (chain): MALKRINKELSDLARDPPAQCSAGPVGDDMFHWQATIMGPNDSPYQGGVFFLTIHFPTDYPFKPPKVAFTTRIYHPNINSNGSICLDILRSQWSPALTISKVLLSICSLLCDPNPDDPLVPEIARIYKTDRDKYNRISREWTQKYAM
B1 (TRIM41 RING domain): 0
B2 (RUFY1 RING domain): 0
B3 (ARIH2 RING domain): 0
ASEEEFQFLRCQQCQAEAKCPKLLPCLHTLCSGCLEASGMQCPICQAPWPLGADTP (PML RING domain (UniProt P29590)): 0
B4 (RNF103 RING domain): 16300
B5 (RNF182 RING domain): 0
FAEQPSVKLCCQLCCSVFKDPVITTCGHTFCRRCALKSEKCPVDNVKLTVVVNNI (TRAF7 RING domain (UniProt Q6Q0C0)): 0
B6 (CNOT4 RING domain): 15000

Study 3
Target: HLA class I histocompatibility antigen, A alpha chain, allele A*25:01 (Homo sapiens, UniProt P04439)
Read-out: peptide-MHC binding
Form: peptide
Tested at: concentration not given
Endpoint: binding
NTIEELSGY: active
VSDFRKEFY: inactive
YYLIKYLHV: inactive
SKLRALLTL: inactive
VMTDGPANK: inactive
RTLGVFRYK: inactive
FMSRKLHRY: inactive
RKLTNPANK: inactive

Single results of other studies
O=C1Nc2ccc(Cl)cc2C(c2ccccc2Cl)=NC1O (stereo not shown)
log2 fold change (Sarcocystis neurona; parasite growth; 10 µM, 96 h, second screen; reference: untreated): 0.12
